Results gathered from unrelated publications.
A part holds a random share of what one study measured. Substitutions count along the parent as printed.

Set 1 — technique: protein-binding microarray; molecule type: double-stranded DNA, one strand shown; matrix: in vitro; tested at: 2540 nM top; setting: 60-bp whole probe; together with: salmon DNA 0.4 mg/ml; relative to: random background probes; direction: higher = stronger binding; shared flanks, not repeated: GCCTAGCAC … GTCTTGATTCGCTTGACGCTGCTG
Target: Interferon regulatory factor 3, full length, phosphomimetic (IRF3, Homo sapiens, UniProt Q14653, residues 1-427, S386D/S396D/S398D/S402D/T404D/S405D)
Chain of UniProt Q14653 (whole entry, unmodified, looked up): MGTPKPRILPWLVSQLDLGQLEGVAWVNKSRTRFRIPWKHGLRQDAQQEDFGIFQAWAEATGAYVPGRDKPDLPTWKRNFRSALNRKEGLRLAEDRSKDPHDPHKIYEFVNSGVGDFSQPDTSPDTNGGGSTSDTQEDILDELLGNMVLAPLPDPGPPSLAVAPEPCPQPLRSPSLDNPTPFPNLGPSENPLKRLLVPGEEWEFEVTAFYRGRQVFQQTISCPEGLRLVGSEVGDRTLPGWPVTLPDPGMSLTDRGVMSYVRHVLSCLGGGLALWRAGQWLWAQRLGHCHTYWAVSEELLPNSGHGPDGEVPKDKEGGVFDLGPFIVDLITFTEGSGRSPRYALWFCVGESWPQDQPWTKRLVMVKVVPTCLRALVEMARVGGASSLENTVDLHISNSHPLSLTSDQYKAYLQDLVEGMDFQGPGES
| Oligonucleotide | fitted relative affinity [z-score] |
| --- | --- |
| GACGGTTTCGGGATTCGGGACGTGCTA | 4.56 |
| TTAGGTATCGACTATCGATTAGTGCTA | 0.628 |
| AATTAAATGATATATATCCATGTGCTA | 0.447 |
| GTAGGACTGGGTATCGGTTAGTGCTAG | 0.186 |
| GACGGTATCAGTCTCGGGACGTGCTAG | 3.8 |
| TTAGGACTGCTTATCCATTAGTGCTAG | -0.137 |
| TTCGATTTCGGGTATCGATTAGTGCTA | 2.38 |
| TTAGATTTCGGGTTTGGATTAGTGCTA | 2.22 |
| TTAGGTTTCGAATATCGGTTAGTGCTA | 3.76 |
| TTAGGTATCGGTTCCGGTTAGTGCTAG | 6.46 |
| GACGGTCTCCTAATGCTGACGTGCTAG | 1.89 |
| TCACATTTGGTTAGCGTACTGTGCTAG | 0.74 |
| GACGATATCAGACTGTAGACGTGCTAG | 0.201 |
| TCTCTTTTATTTTTTTTATTGTGCTAG | 1.97 |
| GACGATTTCAGTCTCGAAACGTGCTAG | 2.63 |
| GACGGTATCGGAACTGGGGACGTGCTA | 3.53 |
| GACGATTTCAGTTCCTAGACGTGCTAG | 2.87 |
| TTAGGTTACGGGACTGGGTTAGTGCTA | -0.193 |
| GGCGAACTGGGGTTTCGAGACGTGCTA | 0.0138 |
| CTCCCTTTCAGTTTTCCTCTGTGCTAG | 3.3 |
| TTAGGTATCGACCATCGGTTAGTGCTA | -0.236 |
| TCAAAAAATGGAAATCTAACTGTGCTA | -0.0142 |
| TTAAAACTGAGTATCGATTAGTGCTAG | 0.396 |
| TTAGATTTCAGTTCCGGTTAGTGCTAG | 3.8 |
| GACGGACTGGGCTTTCGGGACGTGCTA | -0.561 |

Set 2 — technique: RNA Bind-n-Seq; molecule type: RNA; matrix: in vitro; tested at: 365 nM; relative to: no-protein control; direction: higher = stronger binding
Target: RNA binding protein fox-1 homolog 2, RRM domain, GST-SBP tag (RBFOX2, Homo sapiens, UniProt O43251-10, residues 100-194)
Setting: natural RNA segment, single round, ends assumed
Shared flanks, not repeated: GGGAGUUCUACAGUCCGACGAUC … UGGAAUUCUCGGGUGCCAA
Target sequence (chain): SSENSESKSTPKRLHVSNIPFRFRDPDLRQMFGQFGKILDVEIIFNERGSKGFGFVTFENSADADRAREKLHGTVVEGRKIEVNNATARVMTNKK
| Oligonucleotide | RBNS enrichment (R) |
| --- | --- |
| GCAUUAUAGCUUUUGAAGAAAGGCCAGUGAUCCAGCAAAGGGGGAAAAAUAUGCAUUUCACCCCACAUGACUAGGAAUCCACAUCAGAAUGAUACAGAGUUAGCAGGUUU | 0.594 |
| AAAAAAGAAACUAAAAGUUAAUAUUUAGUUGCCUAUAUUAUGUAACCUUUUAACUAUAUAUAAAGUACUUUUUUGGUUUCUUUCUCACCACUUUUAUUCAAAAGUACUUU | 0.561 |
| AAGGAUGUGAAAGUUUUUAUAUGUAUAAUGUUUUAUACACUUUUUAACUGGUUGCACUACCCGUGAAGAAUUCAUGGGACAGCCACUGCUGAGUGACUAACAUGAUGCAC | 0.512 |
| GGAUAUGGUUUACAUUACCGUUUGUUUUCAUUGUGAUUGCCCCUAUGUAACAAUCAUGAAUAUUAGAUUUUUUAAAUUGUAGAAUAUCCUAAUAUUUAUAGCCAGCAGCU | 0.394 |
| UGCUCCAUGGGGCCCUGCUGGCUCCAUGGGGCCCAGGUGCAAAGGGUUUCUGAAAAACAGCAGGAUUAAGUACUGAAAGAGCCCAACACAAUUACCCUGUAAACUCUCUG | 0.396 |
| GCAAAAUGAAGUUGGUGGACUCCGCCUUAAUGAGAAAGGCUUAGAGCAGUUAUGAGGUGCUGUUAUGCUGGGAGUCCCUGAUCUAUCAGCAUAGGAGAAAAAAGUAUGAU | 2.68 |
| UUCGGGGGGUCCUGCUGGGGAGGGGGGCUGGGCUCCCACCAUGGGGCCCAUGCCGAGUGGAUGCCCCCCACCCUCUCUCCUGGGCCACUGAGGAGAGGGGAGAGAGCUGG | 0.644 |
| AAAGAGUGAUAGUCUUUUGCUUUUGGCAAAACUCUACUUAAUCCAAUGGGUUUUUCCCUGUACAGUAGAUUUUCCAAAUGUAAUAAACUUUAAUAUAAAGUAGUCCUGUG | 0.393 |
| CGGAGCACAUCUGUGGUCAAUGGGCUUCCCUAUCUGCCGACUUGGCUCCCAAGGUUCUGCAGGAAAGCAGACCUGCACACAGAUCCCGUGGCUGCUGAAAAGACACAUGU | 0.316 |
| UGGCUCCGCCGUUAAGAGUGACCAGCUUAGCCACAGUUCUGGUGCUCAGCUUGAAGACAAGUCACAGGUGGGCAAGUAUCACUGCCUGAACAGGGCUGUUAAAGGUCCAU | 0.328 |
| UUGGAUCGAAACAGAACCGUUUACCCACCUUUACAAACUAGAGAAUAAAGAUUUGGUUUUAGAACUAGUGGCUGGUGGUGUUCUUUUCUGUGAGAGCUGUGGUGAUGGGG | 0.423 |
| UUGUAUGUGUUCUCCCUUCCUUGAAUCUCUUGUAUGGCCCUAGAACUUUGGUCAGGUGUGUUUAUGGUGACAUGAUUUCUGUGGUUCCUGCCUUACAGCAGGCAGGUUGU | 1.83 |

Set 3 — technique: DHFR PCA, deep sequencing; matrix: yeast; together with: (+)-ABA 2500 µM; relative to: wild-type fitted maximum; direction: higher = stronger binding
Target: ABI1, truncated, D143A, DHFR fusion (Arabidopsis thaliana)
Setting: methotrexate growth selection, single substitutions
Starting sequence: PYL1, truncated, DHFR fusion (Arabidopsis thaliana); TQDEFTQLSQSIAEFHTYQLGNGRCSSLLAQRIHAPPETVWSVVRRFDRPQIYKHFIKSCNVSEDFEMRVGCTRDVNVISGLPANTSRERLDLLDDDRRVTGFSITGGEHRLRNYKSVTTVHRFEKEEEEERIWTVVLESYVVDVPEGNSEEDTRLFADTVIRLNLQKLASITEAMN
| Substitution | relative binding score |
| --- | --- |
| L8A | 90.9% |
| T73I | 99.8% |
| T6H | 99.5% |
| S150G | 91% |
| E14D | 82.9% |
| P50S | 28.5% |
| E131M | 98.8% |
| R24P | 75.6% |
| E127N | 102% |
| I52F | 89.6% |
| R155T | 96.9% |
| E152L | 93.7% |
| R113P | 89.3% |
| S9R | 104% |
| Q2Y | 93.7% |
| C72Y | 95.8% |
| V161Y | 80.8% |
| K168I | 92.1% |
| L28Q | 99.7% |
| E127K | 98.7% |
| R24Y | 93% |

Set 4 — target: ATF5, bZIP domain (human); technique: DHFR protein complementation; matrix: yeast; relative to: wild-type JUN-FOS pair; direction: higher = stronger binding
Setting: single substitutions, most at no-binding floor
Starting sequence: JUN, bZIP domain (human); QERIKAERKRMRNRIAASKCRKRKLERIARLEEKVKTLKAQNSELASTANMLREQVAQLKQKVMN; partner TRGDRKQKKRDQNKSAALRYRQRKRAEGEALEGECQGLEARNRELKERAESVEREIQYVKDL
| Substitution | binding fitness [natural log] |
| --- | --- |
| N42C | -1.34 |
| L45K | -1.59 |
| K39A | -1.51 |
| S47Q | -1.49 |
| V56F | -1.44 |
| A29K | -1.52 |
| E32S | -1.49 |
| A49G | -1.47 |
| K39F | -1.48 |
| V56E | -1.44 |
| L31T | -1.5 |
| K34G | -1.45 |
| A40E | -1.57 |
| L45C | -1.49 |

Set 5 — technique: RNA Bind-n-Seq; molecule type: RNA; matrix: in vitro; tested at: 200 nM; setting: whole 134-nt RNA, ends assumed; together with: 150 mM LiCl; relative to: input library; direction: higher = stronger binding; library: 7-deaza-guanosine replaces G
Target: Ras GTPase-activating protein-binding protein 1, full length (G3BP1, Homo sapiens, UniProt Q13283)
Chain of UniProt Q13283 (whole entry, looked up): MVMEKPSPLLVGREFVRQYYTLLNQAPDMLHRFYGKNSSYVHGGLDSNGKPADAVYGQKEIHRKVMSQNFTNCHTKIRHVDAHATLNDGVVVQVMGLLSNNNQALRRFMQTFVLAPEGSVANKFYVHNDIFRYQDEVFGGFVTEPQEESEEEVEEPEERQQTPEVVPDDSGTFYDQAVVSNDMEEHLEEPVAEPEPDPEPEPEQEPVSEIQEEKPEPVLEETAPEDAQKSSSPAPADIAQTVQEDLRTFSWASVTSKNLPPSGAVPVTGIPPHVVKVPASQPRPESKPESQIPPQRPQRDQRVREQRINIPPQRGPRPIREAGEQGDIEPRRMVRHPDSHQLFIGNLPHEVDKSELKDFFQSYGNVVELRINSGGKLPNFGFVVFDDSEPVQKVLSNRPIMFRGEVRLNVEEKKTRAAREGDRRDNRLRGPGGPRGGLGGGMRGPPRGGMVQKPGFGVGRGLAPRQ
Shared flanks, not repeated: GGGAGUUCUACAGUCCGACGAUC … UGGAAUUCUCGGGUGUCAAGG
| Oligonucleotide | log2 enrichment |
| --- | --- |
| UGGCCCUGGUGGCAUGCGGGGAGGAAGAGGUGGCCUCAUGGAUCGUGGUGGUCCCGGUGGAAUGUUCAGAGGUGGCCGUGGUGGAGACGG | -0.102 |
| CCUGUGCUACACAUCGUAUGUACCGAAUCGGGCCCCCCGGGGCCCCCCGGGGCCCCCCGGGAAAGUAUUAUGUUACGCCGUUCGGAUCUG | -2.09 |
| GUCCUGUGCUACACAUCGUAUGUACCGAAUCGGUUUUUUGGUUUUUUGGUUUUUUGGGGAAAGUAUUAUGUUACGCCGUUCGGAUCUGCA | -1.17 |
| UUAAAGAAGAGGGUGUGCGGGACGUCCUUAAGGAUGUACUGCUCCCAUGGUACAAUGCCUAUCGCUUCUUAAUCCAGAACGUUCUGAGGC | -1.86 |
| UCCUGUGCUACACAUCGUAUGUACCGAAUCGGGAAAAAAGGGAAAAAAGGGAAAAAAGGGAAAGUAUUAUGUUACGCCGUUCGGAUCUGC | 0.269 |
| CAAGUCCUGUGCUACACAUCGUAUGUACCGAAUCGGGGCCCGGGGCCCGGCCCGGGAAAGUAUUAUGUUACGCCGUUCGGAUCUGCACUU | -1.02 |
| CCUGUGCUACACAUCGUAUGUACCGAAUCGGGGAAAAAAAGGGGUGGGGAAAAAAAGGGGAAAGUAUUAUGUUACGCCGUUCGGAUCUGC | -0.702 |

Set 6 — target: CCND2, cyclin fold, Cln2 fusion (human); technique: yeast growth competition, sequencing; matrix: yeast; setting: weak parent motif; relative to: not given; direction: higher = stronger binding
Starting sequence: BRCA2 docking peptide (human); PSIKRNLLNEFDR
| Substitution | normalised enrichment score |
| --- | --- |
| N9T | 0.366 |
| S2A | 0.186 |
| N9V | 0.0997 |
| F11E | -0.144 |
| I3G | 0.455 |
| E10L | 0.0531 |
| D12K | 0.221 |
| L8F | 0.167 |
| I3F | 0.122 |
| K4N | -0.303 |
| R5M | 0.287 |
| N6R | 0.183 |
| N6G | -0.576 |
| F11N | -0.322 |
| P1A | 0.089 |
| R5N | -0.09 |
| N6S | 0.0928 |
| E10P | 0.103 |
| R5H | -0.128 |
| N6H | 0.168 |
| K4I | 0.263 |
| D12P | 0.237 |
| K4W | -0.538 |
| R13C | 0.0079 |

Some of these lines once more (set 6):
| Substitution | normalised enrichment score |
| --- | --- |
| N9T | 0.366 |
| D12K | 0.221 |
| K4W | -0.538 |
| F11E | -0.144 |
| K4N | -0.303 |
| E10L | 0.0531 |
| R5N | -0.09 |
